Results from different studies.
A part holds a random share of what one study measured.

Set 1
Target: RNA binding protein fox-1 homolog 2, RRM domain, GST-SBP tag (RBFOX2, Homo sapiens, UniProt O43251-10, residues 100-194)
Technique: RNA Bind-n-Seq
Molecule type: RNA
Medium: in vitro
Tested at: 365 nM
Setting: natural RNA segment, single round, ends assumed
Relative to: no-protein control
Direction: higher = stronger binding
`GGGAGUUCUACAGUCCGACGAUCUUGUUUUCUUUGGCCCAAGGGUAAACUAAAAUACCUGUGAACUGCAAACUUGCUUGUGAUUGACUUGGUGCAAUACAGUUCCUUUCUAAACGUUUCUGGUUUAGAGAAUAUGGAAUUCUCGGGUGCCAA`: “RBNS enrichment (R)” 6.24.
`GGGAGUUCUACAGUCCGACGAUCCUUUAUUUUUAUGCUAACAACCUUAUUUAAUUAAAAGUGCUGAAACCUGGCAAACUUCUCUAGCAUGUGCUGAAUGGGAGUGUCAGCUGCCAGGGAGCCUUAGGACCCCAUGGAAUUCUCGGGUGCCAA`: “RBNS enrichment (R)” 8.53.
For `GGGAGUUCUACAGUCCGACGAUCAUCAUGAAGGUCACAGUUGUGGUACUGUUAUUGAUAAUAAUAUAGGGUUUUUUUCUGCCUAAGUUUUACCUGUUUCACCAGUGUUUCAGCCCUUGACUGCCCCUCCUAUGUGGAAUUCUCGGGUGCCAA`, “RBNS enrichment (R)” read 0.379.
`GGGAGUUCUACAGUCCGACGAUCCAGCUCAGGUUUUAUCACCGACUGGGAAUAGACAACCUCAAUGCUGAACCGCACUGGAGAAAAGGGGCAAGGUACCCCUGCUGAGGUGUAUGGGCUGCCAUCUCAGGCUGUGGAAUUCUCGGGUGCCAA` — result for “RBNS enrichment (R)”: 0.483.
For `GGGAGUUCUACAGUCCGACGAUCUGAAAACCAGGCUGCAUGUUCUGCUAUGUAUGUGUGGGAAGCCUAGGUCCAGCCUGUGUAUGUUCUUUUGUUGGUUUGGAUUCUGAGAGUCCCAAGAGUCCAGGUUAGUUUGGAAUUCUCGGGUGCCAA`, “RBNS enrichment (R)” read 20.6.
For `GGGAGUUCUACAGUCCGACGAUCCCUUGGCUUGGCUGGUAUAAGUGUGUCAUCCGGACCACCAAACUUCAGAUUAAGCUGUUACUGAGUGAGACACGAGAAGAAUGGUGUUCGCUGGUCUGUCGGCUGUGUUCUGGAAUUCUCGGGUGCCAA`, “RBNS enrichment (R)” read 0.891.
For `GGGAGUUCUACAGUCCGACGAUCAGUUCUAAUUUGGGUUAAUAUUUUUAAAUGUAUUGUUUACUUUUGUAAUUAUAUACACAACAAAUAUUAGUGACUAGUUUUUGUAUUUGACAACUGUUUACCAUUGUGUUUGGAAUUCUCGGGUGCCAA`, “RBNS enrichment (R)” read 0.475.
`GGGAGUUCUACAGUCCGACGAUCCAGAGUGGGCAGGGAAGUGGCUUCAGCCCCUGAGACCCAGAAUAAUAACUAAUCAGCUAGUGUUGUGCCAGCUGUCAUGUACACUGUGGUAUUCUUCAUAGCUCUGAGUUUGGAAUUCUCGGGUGCCAA` — result for “RBNS enrichment (R)”: 0.425.

Set 2
Cell line: HEK-293T
Effect on: pseudovirus infection
Technique: FDA-approved drug library screen
Organism: VSV pseudotyped with SARS-CoV-2 spike
Tested at: 10 µM
Time: 16 h
Relative to: vehicle-treated
`CCOc1ccc2ccccc2c1C(=O)N[C@@H]1C(=O)N2[C@@H]1SC(C)(C)[C@@H]2C(=O)O` has a GFP-positive cells of 75.7%.
With `CCOC(=O)[C@H](CCc1ccccc1)N[C@H]1CCc2ccccc2N(CC(=O)O)C1=O` the GFP-positive cells was 86.2%.
`CO/N=C(\C(=O)N[C@@H]1C(=O)N2C(C(=O)O)=C(COC(N)=O)CS[C@H]12)c1ccco1` gave a GFP-positive cells of 73.2%.
`CCCC(C)(COC(N)=O)COC(=O)NC(C)C` (stereo not drawn) has a GFP-positive cells of 78%.
`CC1(C)O[C@@H]2C[C@H]3[C@@H]4CCC5=CC(=O)CC[C@]5(C)[C@@]4(F)[C@@H](O)C[C@]3(C)[C@]2(C(=O)CCl)O1` has a GFP-positive cells of 73.4%.

Set 3
Target: Replicase polyprotein 1ab, nsp12 with nsp7/nsp8 (rep, Severe acute respiratory syndrome coronavirus 2, UniProt P0DTD1)
Effect on: polymerase activity
Organism: SARS-CoV-2
Tested at: 20 µM
The inhibition of `C=CC(=O)c1ccc2ccccc2c1` is reported as -2.29%.
The inhibition of `C[CH2][Hg][S]c1ccccc1C(=O)[O-].[Na+]` is reported as 20.1%.
`O=C(/C=C/c1ccc2ccccc2n1)c1ccncc1` has an inhibition of 1.59%.
`CC(C)n1nc(C#Cc2ccccc2)c2c(N)ncnc21` gave an inhibition of 1.95%.
The inhibition of `O=[N+]([O-])C=Cc1ccc2c(c1)OCO2` is reported as -1.04%.
`CC(=O)[O][Pt]([NH2])([Cl])([Cl])([NH]C1CCCCC1)[O]C(C)=O` gave an inhibition of -0.69%.
`O=C1C=Cc2cc(Br)ccc2C1=O` gave an inhibition of 4.46%.

Set 4
Target: Replicase polyprotein 1ab, main protease (rep, Severe acute respiratory syndrome coronavirus 2, UniProt P0DTD1)
Effect on: enzyme activity
Mode: inhibitor
Tested at: 20 µM
Setting: hit confirmation
`O=C(O)c1cc(N2N=C(C(F)(F)F)/C(=C/c3ccc(-c4ccccc4)o3)C2=O)ccc1Cl` gave an inhibition of 93.5%.
`CCCOc1ccc(CSc2nnc[nH]2)cc1` gave an inhibition of 69.8%.
`O=c1[nH]nc(Sc2ncc([N+](=O)[O-])s2)n1-c1ccc2c(c1)OCCO2` gave an inhibition of 101%.
With `CCCCCCCCN=c1ccn(CCCCCCCCCCn2ccc(=NCCCCCCCC)cc2)cc1` the inhibition was 25.7%.

A few entries again (set 1):
`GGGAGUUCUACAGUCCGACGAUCUUGUUUUCUUUGGCCCAAGGGUAAACUAAAAUACCUGUGAACUGCAAACUUGCUUGUGAUUGACUUGGUGCAAUACAGUUCCUUUCUAAACGUUUCUGGUUUAGAGAAUAUGGAAUUCUCGGGUGCCAA`: “RBNS enrichment (R)” 6.24.
`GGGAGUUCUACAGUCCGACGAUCCUUUAUUUUUAUGCUAACAACCUUAUUUAAUUAAAAGUGCUGAAACCUGGCAAACUUCUCUAGCAUGUGCUGAAUGGGAGUGUCAGCUGCCAGGGAGCCUUAGGACCCCAUGGAAUUCUCGGGUGCCAA`: “RBNS enrichment (R)” 8.53.
For `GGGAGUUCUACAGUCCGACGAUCAUCAUGAAGGUCACAGUUGUGGUACUGUUAUUGAUAAUAAUAUAGGGUUUUUUUCUGCCUAAGUUUUACCUGUUUCACCAGUGUUUCAGCCCUUGACUGCCCCUCCUAUGUGGAAUUCUCGGGUGCCAA`, “RBNS enrichment (R)” read 0.379.
`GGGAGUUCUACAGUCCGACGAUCCAGCUCAGGUUUUAUCACCGACUGGGAAUAGACAACCUCAAUGCUGAACCGCACUGGAGAAAAGGGGCAAGGUACCCCUGCUGAGGUGUAUGGGCUGCCAUCUCAGGCUGUGGAAUUCUCGGGUGCCAA` — result for “RBNS enrichment (R)”: 0.483.
